Published values of several laboratories.
Compare with care: the assays were run in different laboratories.

| Compound | assay | system | conditions | quantity | value |
| --- | --- | --- | --- | --- | --- |
| CC(C)n1c(Nc2cccnc2)nc2cnc(Nc3ccc(N4CCN(C)CC4)cc3)nc21 | measured: Toothache | healthy male subjects | oral, 100 mg, together with: gemfibrozil | adverse event incidence | 7.1% |
| CC[C@H](C)CCCCC(=O)N[C@@H](CCN)C(=O)N[C@H](C(=O)N[C@@H](CCN)C(=O)N[C@H]1CCNC(=O)[C@H]([C@@H](C)O)NC(=O)[C@H](CCN)NC(=O)[C@H](CCN)NC(=O)[C@H](CC(C)C)NC(=O)[C@@H](Cc2ccccc2)NC(=O)[C@H](CCN)NC1=O)[C@@H](C)O | measured: oral hypoaesthesia | all subjects | IV, 0.75 mg/kg | adverse event incidence | 72.7% |
| Cc1c(Cl)c(C)[n+]([O-])c(Cl)c1-c1noc(-c2cc(O)c(O)c([N+](=O)[O-])c2)n1 | measured: Bloating | healthy Chinese subjects | oral, 50 mg, 20 days | adverse drug reaction incidence | 0% |
| O=C1CCc2ccc(OCCCCN3CCN(c4cccc(Cl)c4Cl)CC3)cc2N1 | measured: Hypertension | genotyped patients, CYP2D6 poor metabolizers | dose not given, long-acting oral or depot | adverse event incidence | 0% |
| Cc1ccc(Sc2ccccc2N2CCNCC2)c(C)c1 | TEAE dysphoria | healthy adult men | oral, 10 mg single dose, 8 nights, fed | adverse event incidence | 0% |
| CC(=O)O[C@H]1C(=O)[C@@]2(C)[C@H]([C@H](OC(=O)c3ccccc3)[C@]3(O)C[C@H](OC(=O)[C@H](O)[C@@H](NC(=O)c4ccccc4)c4ccccc4)C(C)=C1C3(C)C)[C@]1(OC(C)=O)CO[C@@H]1C[C@@H]2O | measured: Vomiting | patients with advanced solid tumours | intravenous, dose not given, grade 3 and 4, possibly related to drug | adverse event incidence | 2% |
| CNC(=O)c1ccc(-c2cnc3ncc(Cc4ccc5ncccc5c4)n3n2)cc1F | phase 1 clinical trial, measured: peripheral edema | gastric cancer expansion cohort | oral, 600 mg twice daily, grade 3 or 4 | adverse event incidence | 0% |
| Cc1cc(Nc2ccc(S(F)(F)(F)(F)F)cc2)n2nc(C(C)(F)F)nc2n1 | – | Plasmodium falciparum malaria patients | oral, 250 mg | adverse event Nausea | 27.3% |
| NCCONC(=O)[C@@H]1CC[C@@H]2CN1C(=O)N2OS(=O)(=O)O | measured: leading to permanent discontinuation | healthy Chinese men | intravenous, 2 g, treatment-emergent | adverse event incidence | 0% |

For quick reference, copied from above:
| Compound | assay | system | conditions | quantity | value |
| --- | --- | --- | --- | --- | --- |
| CC(C)n1c(Nc2cccnc2)nc2cnc(Nc3ccc(N4CCN(C)CC4)cc3)nc21 | measured: Toothache | healthy male subjects | oral, 100 mg, together with: gemfibrozil | adverse event incidence | 7.1% |
